Results pooled from the literature.
Parts stem from different laboratories: compare values within a part only. Changes are numbered by the printed parent chain.
Sequence of UniProt Q02763 (whole entry, looked up): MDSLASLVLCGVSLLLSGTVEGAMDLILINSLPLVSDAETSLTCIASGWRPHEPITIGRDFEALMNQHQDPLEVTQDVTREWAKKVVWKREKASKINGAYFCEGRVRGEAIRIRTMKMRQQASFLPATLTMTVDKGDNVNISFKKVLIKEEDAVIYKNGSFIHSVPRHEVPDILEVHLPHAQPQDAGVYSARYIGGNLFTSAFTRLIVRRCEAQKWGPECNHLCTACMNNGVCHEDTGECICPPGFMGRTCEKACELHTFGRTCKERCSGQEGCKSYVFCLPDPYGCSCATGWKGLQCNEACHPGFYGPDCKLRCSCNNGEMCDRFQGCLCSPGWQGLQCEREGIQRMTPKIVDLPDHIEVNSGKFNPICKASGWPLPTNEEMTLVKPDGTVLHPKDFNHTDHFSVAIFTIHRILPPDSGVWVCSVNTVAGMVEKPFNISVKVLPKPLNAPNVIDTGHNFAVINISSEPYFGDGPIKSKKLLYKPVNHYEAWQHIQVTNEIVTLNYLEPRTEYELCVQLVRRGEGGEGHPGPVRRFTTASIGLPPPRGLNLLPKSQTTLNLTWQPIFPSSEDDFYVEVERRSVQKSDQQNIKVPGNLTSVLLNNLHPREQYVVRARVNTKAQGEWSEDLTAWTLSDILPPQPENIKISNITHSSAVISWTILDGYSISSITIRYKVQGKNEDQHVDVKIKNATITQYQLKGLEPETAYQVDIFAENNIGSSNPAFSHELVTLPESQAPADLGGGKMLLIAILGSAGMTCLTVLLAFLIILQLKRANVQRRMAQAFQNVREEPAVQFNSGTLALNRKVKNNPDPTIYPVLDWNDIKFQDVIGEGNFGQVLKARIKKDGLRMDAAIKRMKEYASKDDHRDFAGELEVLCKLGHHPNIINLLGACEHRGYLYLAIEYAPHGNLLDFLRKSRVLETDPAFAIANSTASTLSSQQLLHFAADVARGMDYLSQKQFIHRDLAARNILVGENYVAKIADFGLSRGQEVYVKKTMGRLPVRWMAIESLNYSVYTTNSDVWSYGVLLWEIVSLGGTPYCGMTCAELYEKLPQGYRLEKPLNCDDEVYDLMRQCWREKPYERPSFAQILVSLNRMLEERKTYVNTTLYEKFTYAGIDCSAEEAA
Sequence of UniProt P42684 (whole entry, looked up): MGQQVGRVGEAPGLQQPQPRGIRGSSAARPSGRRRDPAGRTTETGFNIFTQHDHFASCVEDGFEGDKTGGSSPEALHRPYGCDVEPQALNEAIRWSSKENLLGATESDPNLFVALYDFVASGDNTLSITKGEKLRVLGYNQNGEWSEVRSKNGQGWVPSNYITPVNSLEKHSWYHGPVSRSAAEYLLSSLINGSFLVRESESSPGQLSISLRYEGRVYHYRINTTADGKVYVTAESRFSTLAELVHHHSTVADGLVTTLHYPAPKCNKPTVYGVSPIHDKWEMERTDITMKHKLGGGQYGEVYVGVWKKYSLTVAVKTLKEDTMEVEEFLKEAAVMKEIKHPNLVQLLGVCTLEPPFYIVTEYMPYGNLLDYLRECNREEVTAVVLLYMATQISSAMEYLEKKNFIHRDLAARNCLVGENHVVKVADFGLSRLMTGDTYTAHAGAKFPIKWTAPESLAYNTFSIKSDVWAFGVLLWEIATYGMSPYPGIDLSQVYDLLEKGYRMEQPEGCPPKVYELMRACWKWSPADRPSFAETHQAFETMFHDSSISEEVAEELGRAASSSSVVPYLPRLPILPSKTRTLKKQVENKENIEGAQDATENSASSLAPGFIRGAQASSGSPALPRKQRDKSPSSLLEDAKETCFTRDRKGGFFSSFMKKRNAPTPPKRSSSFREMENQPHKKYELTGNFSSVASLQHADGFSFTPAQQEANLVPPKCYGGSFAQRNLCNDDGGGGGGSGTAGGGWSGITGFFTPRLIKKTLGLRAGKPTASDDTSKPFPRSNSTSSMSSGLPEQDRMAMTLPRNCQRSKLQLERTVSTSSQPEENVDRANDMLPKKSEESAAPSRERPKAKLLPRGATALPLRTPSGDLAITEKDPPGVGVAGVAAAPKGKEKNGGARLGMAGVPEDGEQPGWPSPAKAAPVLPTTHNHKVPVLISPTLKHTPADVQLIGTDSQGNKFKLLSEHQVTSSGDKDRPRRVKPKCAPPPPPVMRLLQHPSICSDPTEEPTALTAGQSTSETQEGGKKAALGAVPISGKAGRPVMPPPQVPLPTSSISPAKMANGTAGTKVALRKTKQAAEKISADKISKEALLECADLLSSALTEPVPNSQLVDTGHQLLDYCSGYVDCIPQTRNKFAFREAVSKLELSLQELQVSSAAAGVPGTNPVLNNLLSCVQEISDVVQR
Sequence of UniProt Q99558 (whole entry, looked up): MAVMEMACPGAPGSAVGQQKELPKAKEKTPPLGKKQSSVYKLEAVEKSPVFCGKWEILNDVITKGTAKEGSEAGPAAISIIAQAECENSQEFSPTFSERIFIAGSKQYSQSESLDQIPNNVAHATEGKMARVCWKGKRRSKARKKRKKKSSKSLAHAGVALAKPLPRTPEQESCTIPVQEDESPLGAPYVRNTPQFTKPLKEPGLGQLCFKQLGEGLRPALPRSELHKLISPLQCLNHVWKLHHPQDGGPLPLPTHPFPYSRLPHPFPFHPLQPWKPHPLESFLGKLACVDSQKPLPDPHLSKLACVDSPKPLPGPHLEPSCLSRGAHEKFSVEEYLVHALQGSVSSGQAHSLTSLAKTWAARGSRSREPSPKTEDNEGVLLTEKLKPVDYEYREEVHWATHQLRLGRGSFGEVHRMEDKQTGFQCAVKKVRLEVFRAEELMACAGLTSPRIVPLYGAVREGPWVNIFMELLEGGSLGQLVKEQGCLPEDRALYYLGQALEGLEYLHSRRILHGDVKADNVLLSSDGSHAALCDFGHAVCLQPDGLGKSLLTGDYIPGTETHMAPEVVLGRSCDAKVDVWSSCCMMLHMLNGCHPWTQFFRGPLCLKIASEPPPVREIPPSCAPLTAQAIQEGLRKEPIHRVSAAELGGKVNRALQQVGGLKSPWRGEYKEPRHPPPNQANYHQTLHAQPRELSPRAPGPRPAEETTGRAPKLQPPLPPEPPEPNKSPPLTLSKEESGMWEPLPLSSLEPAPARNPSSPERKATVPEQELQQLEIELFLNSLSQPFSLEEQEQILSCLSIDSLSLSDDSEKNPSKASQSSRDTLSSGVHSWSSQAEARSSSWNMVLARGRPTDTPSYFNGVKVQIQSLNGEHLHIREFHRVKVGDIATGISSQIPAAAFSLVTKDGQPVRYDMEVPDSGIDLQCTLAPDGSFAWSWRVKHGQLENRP
Sequence of UniProt Q12866 (whole entry, looked up): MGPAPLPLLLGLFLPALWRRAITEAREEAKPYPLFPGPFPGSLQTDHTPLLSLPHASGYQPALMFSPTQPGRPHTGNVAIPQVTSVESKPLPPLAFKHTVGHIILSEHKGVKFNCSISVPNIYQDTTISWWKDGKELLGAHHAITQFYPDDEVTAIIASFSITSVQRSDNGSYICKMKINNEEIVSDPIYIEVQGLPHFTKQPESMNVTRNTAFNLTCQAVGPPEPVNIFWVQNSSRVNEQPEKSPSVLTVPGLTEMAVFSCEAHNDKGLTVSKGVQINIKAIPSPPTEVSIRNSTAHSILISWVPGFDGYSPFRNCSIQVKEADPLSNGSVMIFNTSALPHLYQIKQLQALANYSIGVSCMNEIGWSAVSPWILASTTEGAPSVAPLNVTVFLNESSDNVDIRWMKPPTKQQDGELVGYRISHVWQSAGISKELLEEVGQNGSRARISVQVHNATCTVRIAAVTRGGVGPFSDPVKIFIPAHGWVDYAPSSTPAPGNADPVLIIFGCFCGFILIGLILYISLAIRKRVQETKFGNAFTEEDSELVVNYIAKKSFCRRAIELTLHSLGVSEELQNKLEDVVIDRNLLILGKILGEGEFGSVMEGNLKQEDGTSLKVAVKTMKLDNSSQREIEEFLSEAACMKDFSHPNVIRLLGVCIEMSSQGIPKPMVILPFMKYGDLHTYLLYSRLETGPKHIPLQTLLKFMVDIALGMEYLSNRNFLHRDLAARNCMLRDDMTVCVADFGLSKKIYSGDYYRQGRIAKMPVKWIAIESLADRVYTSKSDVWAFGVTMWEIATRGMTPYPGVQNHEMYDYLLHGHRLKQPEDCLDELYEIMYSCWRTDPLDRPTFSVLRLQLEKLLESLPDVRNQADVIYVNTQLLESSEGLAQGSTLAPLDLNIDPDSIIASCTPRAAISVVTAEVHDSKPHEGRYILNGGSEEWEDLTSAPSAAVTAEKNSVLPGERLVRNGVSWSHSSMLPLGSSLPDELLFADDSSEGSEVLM
Sequence of UniProt Q9UHD2 (whole entry, looked up): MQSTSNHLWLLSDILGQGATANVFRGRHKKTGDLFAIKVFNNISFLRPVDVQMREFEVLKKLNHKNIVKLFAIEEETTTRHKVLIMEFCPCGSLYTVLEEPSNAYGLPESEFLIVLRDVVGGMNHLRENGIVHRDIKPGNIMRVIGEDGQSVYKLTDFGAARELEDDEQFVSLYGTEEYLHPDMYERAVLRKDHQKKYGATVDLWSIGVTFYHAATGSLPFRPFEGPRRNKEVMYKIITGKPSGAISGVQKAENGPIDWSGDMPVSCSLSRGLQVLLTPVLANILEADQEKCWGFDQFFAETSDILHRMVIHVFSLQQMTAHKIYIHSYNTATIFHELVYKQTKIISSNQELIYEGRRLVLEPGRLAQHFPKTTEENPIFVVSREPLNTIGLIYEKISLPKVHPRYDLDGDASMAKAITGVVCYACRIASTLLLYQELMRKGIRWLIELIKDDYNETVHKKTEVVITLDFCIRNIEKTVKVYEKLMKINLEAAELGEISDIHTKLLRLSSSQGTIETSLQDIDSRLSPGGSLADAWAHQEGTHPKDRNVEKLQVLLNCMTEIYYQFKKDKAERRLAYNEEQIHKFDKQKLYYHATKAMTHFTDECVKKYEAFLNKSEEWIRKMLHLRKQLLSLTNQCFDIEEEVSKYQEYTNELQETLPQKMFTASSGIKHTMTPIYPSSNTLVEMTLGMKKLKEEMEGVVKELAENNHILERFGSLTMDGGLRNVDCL

Series 1
Target: ABI1, truncated, D143A, DHFR fusion (Arabidopsis thaliana)
Technique: DHFR PCA, deep sequencing
Medium: yeast
Notes: methotrexate growth selection, single substitutions
Added: (+)-ABA 1.4 µM
Reference: wild-type fitted maximum
Direction: higher = stronger binding
Starting sequence: PYL1, truncated, DHFR fusion (Arabidopsis thaliana); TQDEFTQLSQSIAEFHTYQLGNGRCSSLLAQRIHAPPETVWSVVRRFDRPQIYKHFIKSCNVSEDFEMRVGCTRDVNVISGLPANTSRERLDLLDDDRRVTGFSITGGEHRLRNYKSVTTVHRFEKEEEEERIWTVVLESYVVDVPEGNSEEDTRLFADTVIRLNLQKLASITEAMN; partner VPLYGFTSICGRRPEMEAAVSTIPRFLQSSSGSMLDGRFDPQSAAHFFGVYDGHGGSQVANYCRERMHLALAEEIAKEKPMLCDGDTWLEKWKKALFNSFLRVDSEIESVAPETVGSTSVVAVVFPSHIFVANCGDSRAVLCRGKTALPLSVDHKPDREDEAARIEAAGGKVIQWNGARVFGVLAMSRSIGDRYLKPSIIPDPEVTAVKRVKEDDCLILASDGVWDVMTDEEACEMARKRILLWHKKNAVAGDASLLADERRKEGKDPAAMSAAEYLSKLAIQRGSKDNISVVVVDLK
`Q2M` — result for “relative binding score”: 64.3%.
`G71E`: “relative binding score” -0.931%.
`P37Y` — result for “relative binding score”: 13.4%.
Under “relative binding score”, `G107H` is recorded as 12.8%.
`T119R`: “relative binding score” -2.35%.
Under “relative binding score”, `N22I` is recorded as 55%.
`A35P` — result for “relative binding score”: -42.3%.
Under “relative binding score”, `G108T` is recorded as -13%.

Series 2
Target: PABPC1L2, full length, GST fusion (mouse, UniProt A0ABA7IW68)
Technique: RNAcompete
Form: RNA
Medium: in vitro
Tested at: 20 nM
Notes: 7-mer, probes averaged, single round
Reference: mean of 7-mers
Direction: higher = stronger binding
Residues (chain): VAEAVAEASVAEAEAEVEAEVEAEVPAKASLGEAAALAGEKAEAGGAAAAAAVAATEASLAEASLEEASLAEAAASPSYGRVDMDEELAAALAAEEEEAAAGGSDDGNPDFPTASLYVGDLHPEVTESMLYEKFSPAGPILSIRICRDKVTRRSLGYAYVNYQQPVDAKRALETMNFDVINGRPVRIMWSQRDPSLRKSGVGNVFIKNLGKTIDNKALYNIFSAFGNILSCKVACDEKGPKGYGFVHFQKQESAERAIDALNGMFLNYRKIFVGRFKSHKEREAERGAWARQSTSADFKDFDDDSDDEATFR
For `UAGAGAG`, the 7-mer Z-score was -0.119.
`CCGGUUU` gave a 7-mer Z-score of -0.42.
The 7-mer Z-score of `UAUUUGU` is reported as -0.338.
The 7-mer Z-score of `GGUAGGG` is reported as 0.18.
`UCAGGCA` has a 7-mer Z-score of 0.0134.
The 7-mer Z-score of `CGAAACG` is reported as -0.159.
For `ACAGGAC`, the 7-mer Z-score was 0.352.
With `CAUUGGC` the 7-mer Z-score was -0.219.

Series 3
Compound: O=C(c1cc2cc(O)ccc2[nH]1)c1cc2cc(O)ccc2[nH]1
Observed: enzyme activity
Mode: inhibitor
Tested at: 0.5 µM
Reference: control
The remaining activity was 98.9% (ACVR1B (Homo sapiens, UniProt P36896)).
The remaining activity was 52% (LCK (Homo sapiens, UniProt P06239)).
It gave 27.2% for remaining activity (ABL2 (Homo sapiens, UniProt P42684)).
It gave 90.4% for remaining activity (MST1R (Homo sapiens, UniProt Q04912)).
The remaining activity was 104% (TEK (Homo sapiens, UniProt Q02763)).
MAP3K14 (Homo sapiens, UniProt Q99558) — remaining activity: 77.1%.
It gave 93.8% for remaining activity (CSNK1G2 (Homo sapiens, UniProt P78368)).
It gave 98.8% for remaining activity (MAP2K2 (Homo sapiens, UniProt P36507)).
For ULK2 (Homo sapiens, UniProt Q8IYT8): remaining activity read 94.5%.
For GSK3B (Homo sapiens, UniProt P49841): remaining activity read 78.7%.
NEK6 (Homo sapiens, UniProt Q9HC98) — remaining activity: 99.6%.
It gave 101% for remaining activity (EPHA3 (Homo sapiens, UniProt P29320)).
It gave 81.8% for remaining activity (MERTK (Homo sapiens, UniProt Q12866)).
The remaining activity was 35% (TBK1 (Homo sapiens, UniProt Q9UHD2)).

Series 4
SMILES: C[C@H](c1ccc(F)cc1)N(Cc1cccc(C(=O)O)c1)C(=O)c1cnc2ccccc2c1
Observed: cell-free assay
Technique: competition with immobilised ligand
Tested at: 1 µM
TAOK1 (Homo sapiens, UniProt Q7L7X3) — remaining binding: 100%.
The remaining binding was 100% (PRKCD (Homo sapiens, UniProt Q05655)).
NLK (Homo sapiens, UniProt Q9UBE8) — remaining binding: 86%.
The remaining binding was 100% (MAP3K11 (Homo sapiens, UniProt Q16584)).
The remaining binding was 100% (PIK3CA (Homo sapiens, UniProt P42336, H1047Y)).
SGK3 (Homo sapiens, UniProt Q96BR1) — remaining binding: 100%.

Excerpt of the above (series 3):
The remaining activity was 104% (TEK (Homo sapiens, UniProt Q02763)).
MAP3K14 (Homo sapiens, UniProt Q99558) — remaining activity: 77.1%.
It gave 93.8% for remaining activity (CSNK1G2 (Homo sapiens, UniProt P78368)).
It gave 98.8% for remaining activity (MAP2K2 (Homo sapiens, UniProt P36507)).
